Assay results gathered from unrelated publications.
Protocols differ between the studies behind these lines. Several values in a cell are separate wells, animals, samples, runs or records. Numbers after ± are the reported error.
rep main protease: Replicase polyprotein 1ab, main protease (rep, Severe acute respiratory syndrome coronavirus 2, UniProt P0DTD1)
rep papain-like protease: Replicase polyprotein 1ab, papain-like protease (rep, Severe acute respiratory syndrome coronavirus 2, UniProt P0DTD1)

SMILES | target | assay | test system | conditions | inhibition
O=C(NC1CCC(F)(F)CC1)C(c1cncnc1)N(C(=O)C(F)Cl)c1ccc(-c2cncs2)cc1 (stereo not drawn) | rep main protease | enzyme activity, inhibitor | – | 0.103 µM | 86.1%
CCOC(=O)CC[C@H](NC(=O)c1ccccc1[Se][Se]c1ccccc1C(=O)N[C@@H](CCC(=O)OCC)C(=O)OCC)C(=O)OCC | rep main protease | enzyme activity, inhibitor | – | 40 µM, mean of repeats | 66.9%
O=C(CCN(Cc1ccco1)C(=O)c1csc(Nc2ccccc2)n1)NCc1cccc(C(F)(F)F)c1 | rep main protease | nsp5 protease activity, luciferase | HEK293T | 10 µM | 49.9 ± 0.2%
CC(=O)c1ccc(C)cc1OC(=O)c1nc(S(=O)(=O)Cc2ccccc2F)ncc1Cl | rep main protease | enzyme activity, inhibitor | – | 100 µM | 99.9%
CC[C@@H](C)[C@H](NC(=O)c1ccccc1[Se][Se]c1ccccc1C(=O)N[C@H](C(=O)O)[C@H](C)CC)C(=O)O | rep main protease | enzyme activity, inhibitor | – | 40 µM, mean of repeats | 72.2%
O=C(/C=C/c1ccc(O)c(O)c1)O[C@@H]1Cc2c(O)cc(O)cc2O[C@@H]1c1ccc(O)c(O)c1 | rep main protease | intracellular protease activity | HEK293T | 100 µM | 93.55 ± 0.06%
CC(=O)Nc1ccc(-c2cnc(N3C(=O)C(Cl)C3c3cc4ccccc4nc3Cl)s2)cc1 (stereo not drawn) | rep papain-like protease | enzyme activity, inhibitor | – | 100 µM | 100%
COc1cc2[nH]c(=O)n(CCC(=O)NCc3ccc4c(c3)OCO4)c(=O)c2cc1OC | rep papain-like protease | enzyme activity, inhibitor | – | 100 µg/mL | 0.53%
COc1ccc(-c2cc(=O)c3c(O)c(Oc4ccc(-c5cc(=O)c6c(O)cc(O)cc6o5)cc4)c(OC)cc3o2)cc1 | rep papain-like protease | enzyme activity, inhibitor | – | 20 µM | 64.9 to 74.8%
CC1C(n2[se]c3ccccc3c2=O)CC2CC1C2(C)C (stereo not drawn) | rep main protease | enzyme activity, inhibitor | – | 40 µM, mean of repeats | 102%
COc1c(O[C@@H]2O[C@H](C(=O)O)[C@@H](O)[C@H](O)[C@H]2O)cc(O)c2c(=O)cc(-c3ccccc3)oc12 | rep main protease | enzyme activity | – | 50 µM | inactive
CCOC(=O)[C@H](C(C)C)n1[se]c2ccccc2c1=O | rep main protease | enzyme activity, inhibitor | – | 40 µM | 105%
O=C(O[C@@H]1[C@@H](O)[C@H](Oc2cc(O)c3c(c2)O[C@H](c2ccccc2)CC3=O)O[C@@H]2COC(=O)c3cc(O)c(O)c(O)c3-c3c(cc(O)c(O)c3O)C(=O)O[C@@H]12)c1cc(O)c(O)c(O)c1 | rep main protease | enzyme activity, inhibitor, mass spectrometry | – | concentration not given | inhibited
O=C(NC1CCN(c2ncnc3[nH]cnc23)CC1)c1cccc(NS(=O)(=O)c2ccc(C(F)(F)F)cc2)c1 | Replicase polyprotein 1ab, nsp14 with nsp10 (rep, Severe acute respiratory syndrome coronavirus 2, UniProt P0DTD1) | exonuclease activity | SARS-CoV-2 | 3.125 µM | 11.6%
COc1cc(Oc2c(O)c(Cl)c(C)c(Cl)c2OC)c(C(=O)O)c(C)c1O | rep main protease | enzyme activity, inhibitor, FRET | – | 10 µM | 22.9%
CCOC(=O)CC[C@@H](C(=O)OCC)n1[se]c2ccccc2c1=O | rep main protease | enzyme activity, inhibitor | – | 40 µM, mean of repeats | 102%
COc1cccc(NC(=O)CSc2ccccc2C(=O)Nc2ccc3c(c2)NC(=O)C(C)O3)c1 (stereo not drawn) | rep main protease | enzyme activity, inhibitor | – | 100 µg/mL | 0%
COC(=O)c1cc2c(=O)n3ccccc3nc2n1Cc1ccccc1 | rep main protease | enzyme activity, inhibitor | – | 10 µM | 18%
C[C@](C(=O)NC1CCC(F)(F)CC1)(c1cncnc1)N(C(=O)[C@H](F)Cl)c1ccc(OC(F)(F)F)cc1 | rep main protease | enzyme activity, inhibitor | – | 0.926 µM | 98.1%
Cc1cc(-n2[se]c3ccccc3c2=O)ccn1 | rep main protease | enzyme activity, inhibitor | – | 0.3 µM | 59.2%
O=C(Oc1cncc(Cl)c1)c1c[nH]c2ccccc12 | rep main protease | enzyme activity, inhibitor, fluorescence | – | 10 µM, pH 7.2 | 45%
C=C1CC[C@@H]2[C@](C)(COC(C)=O)[C@H](OC(C)=O)CC[C@@]2(C)[C@@H]1C[C@H](SC(=S)N1CCN(C(c2ccccc2)c2ccccc2)CC1)C1=CCOC1=O | rep main protease | enzyme activity, inhibitor, fluorescence | – | 10 µM | > 50%
COC(=O)[C@H](C)NC(=O)c1ccccc1[Se][Se]c1ccccc1C(=O)N[C@@H](C)C(=O)OC | rep main protease | enzyme activity, inhibitor | – | 40 µM | 104% and 107%
O=C(NC1CCC(F)(F)CC1)C(c1cncnc1)N(C(=O)C(F)Cl)c1ccc(OC(F)(F)F)cc1 (stereo not drawn) | rep main protease | enzyme activity, inhibitor | – | 8.333 µM | 101%
O=c1cc(-c2ccc(O)cc2)oc2c([C@@H]3OC[C@H](O)[C@H](O)[C@H]3O)c(O)c([C@@H]3O[C@H](CO)[C@@H](O)[C@H](O)[C@H]3O)c(O)c12 | rep papain-like protease | enzyme activity, inhibitor | – | 8 µM | 60%
COc1cc(OC)cc(C(=O)N(CCC(=O)N2CCNCC2)Cc2cccc(Cl)c2)c1 | Replicase polyprotein 1ab, nsp3 macrodomain (rep, Severe acute respiratory syndrome coronavirus 2, UniProt P0DTD1) | ADP-ribosylhydrolase activity, inhibitor, gel-based de-MARylation | – | 25 µM, SARS-CoV-2 Mac1 | 6%
C[C@](C(=O)NC1CCOCC1)(c1cncnc1)N(C(=O)[C@H](F)Cl)c1ccc(OC(F)(F)Cl)cc1 | rep main protease | enzyme activity | – | 0.00051 µM | -4.71% and 3.22% and 2.76%
O=c1c2ccccc2[se]n1-c1ccc(F)cc1 | rep main protease | enzyme activity, inhibitor | – | 0.3 µM | 67%
COC(=O)C[C@H](NC(=O)c1ccccc1[Se][Se]c1ccccc1C(=O)N[C@@H](CC(=O)OC)C(=O)OC)C(=O)OC | rep main protease | enzyme activity, inhibitor | – | 40 µM | 106%
N=C(N)Nc1ccc(-c2ccc(-c3ccc(NC(=N)N)c(Cl)c3)o2)cc1Cl | rep main protease | enzyme activity, inhibitor, fluorescence | – | 50 µM, pH 7.2 | 100%

Some of these lines once more:
SMILES | target | assay | test system | conditions | inhibition
COC(=O)c1cc2c(=O)n3ccccc3nc2n1Cc1ccccc1 | rep main protease | enzyme activity, inhibitor | – | 10 µM | 18%
CC(=O)c1ccc(C)cc1OC(=O)c1nc(S(=O)(=O)Cc2ccccc2F)ncc1Cl | rep main protease | enzyme activity, inhibitor | – | 100 µM | 99.9%
O=c1cc(-c2ccc(O)cc2)oc2c([C@@H]3OC[C@H](O)[C@H](O)[C@H]3O)c(O)c([C@@H]3O[C@H](CO)[C@@H](O)[C@H](O)[C@H]3O)c(O)c12 | rep papain-like protease | enzyme activity, inhibitor | – | 8 µM | 60%
